Assay results gathered from unrelated publications.
Lines come from different studies, so protocols differ.
Cell line: UACC-62

Structure (SMILES)	test	setting	how to read	endpoint	result
CCN(CC)c1ccc(C=NNC(=O)CSc2nc3ccccc3c(=O)n2Cc2ccc(S(N)(=O)=O)cc2)c(O)c1	NCI five-dose screen			TGI	5.44 µM
Cc1n[nH]c2nc(-c3ccc(Cl)cc3)c3c(NC(=O)c4ccccc4)nnc-3n12	SRB	10 µM, NCI60 single-dose screen	baseline: untreated	cell growth	105%
Cn1cncc1C1=CN(c2ncnc3[nH]cnc23)CCS1		melanoma cell line		TGI	42.7 µM
Cc1cc(=O)[nH]n1-c1nc(-c2ccc(Cl)cc2)c2c(NC(=O)c3ccccc3)nnc-2[nH]1	SRB	10 µM, NCI60 single-dose screen	baseline: untreated	cell growth	81.1%
CCCCN1CCN(c2ccc3[nH]c(-c4ccc5[nH]c(-c6cc(OC)c(OC)c(OC)c6)nc5c4)nc3c2)CC1	SRB	10 µM, 48 h		growth percent	39.5%
Cc1cc(-c2ccccc2)n(-c2nc(-c3ccc(Cl)cc3)c3c(NC(=O)c4ccccc4)nnc-3[nH]2)n1	SRB	10 µM, NCI60 single-dose screen	baseline: untreated	cell growth	77.8%
CCCCN1CCN(c2ccc3[nH]c(-c4ccc5[nH]c(-c6ccc(C(F)(F)F)cc6)nc5c4)nc3c2)CC1	SRB	10 µM, 48 h		growth percent	-31.6%
O=C(/C=C/C=C/C=C/C1CCCCC1)NC1=C[C@@](O)(/C=C/C=C/C=C/C(=O)NC2=C(O)CCC2=O)[C@@H]2O[C@@H]2C1=O	cell growth, CellTiter-Glo	78 h		GI50	14.2 µM
O=C(Nc1nnc2n3c(Cc4ccccc4)n[nH]c3nc(-c3ccc(Cl)cc3)c1-2)c1ccccc1	SRB	10 µM, NCI60 single-dose screen	baseline: untreated	cell growth	102%
O=c1ccn(Cc2cn(-c3cc4ccccc4oc3=O)nn2)c(=O)[nH]1	NCI60 single-dose screen	10 µM		growth percentage	96.8%
O=C(Nc1nnc2n3c(=S)[nH][nH]c3nc(-c3ccc(Cl)cc3)c1-2)c1ccccc1	SRB	10 µM, NCI60 single-dose screen	baseline: untreated	cell growth	93.5%
C#C[C@@]1(O)[C@@H](CO)O[C@@H](n2cc(Cl)c3c(N)ncnc32)[C@@H]1O	SRB	NCI-60 screen		TGI	0.383 µM
CN1CCN(c2ccc3[nH]c(-c4ccc5[nH]c(-c6ccc(C(F)(F)F)cc6)nc5c4)nc3c2)CC1	SRB	10 µM, 48 h		growth percent	67.5%
O=C1NC(c2ccccc2)(c2ccccc2)C(=O)N1Cc1cn(-c2c3ccccc3nc3ccccc23)nn1	NCI60 single-dose screen	10 µM		growth percentage	72.4%
CCCN1CCN(c2ccc3[nH]c(-c4ccc5[nH]c(-c6cc(OC)c(OC)c(OC)c6)nc5c4)nc3c2)CC1	SRB	10 µM, 48 h		growth percent	35.8%
C#C[C@@]1(O)[C@@H](CO)O[C@@H](n2ccc3c(N)ncnc32)[C@@H]1O	SRB	NCI-60 screen		TGI	4.48 µM
Cc1cc(=O)[nH]c(=O)n1Cc1cn(-c2cc3ccccc3oc2=O)nn1	NCI60 single-dose screen	10 µM		growth percentage	98%
CCCN1CCN(c2ccc3[nH]c(-c4ccc5[nH]c(-c6ccc(C(F)(F)F)cc6)nc5c4)nc3c2)CC1	SRB	10 µM, 48 h		growth percent	72.9%
Cc1cc(C)n(-c2nc(-c3ccc(Cl)cc3)c3c(NC(=O)c4ccccc4)nnc-3[nH]2)n1	SRB	10 µM, NCI60 single-dose screen	baseline: untreated	cell growth	76.8%
CCCN1CCN(c2ccc3[nH]c(-c4ccc5[nH]c(-c6ccc(OCC)c(OCC)c6)nc5c4)nc3c2)CC1	SRB	10 µM, 48 h		growth percent	-85%
S=C([S][Au-][P+](CCCCCC[P+]([Au-][S]C(=S)n1cccn1)(c1ccccc1)c1ccccc1)(c1ccccc1)c1ccccc1)n1cccn1	cell growth, NCI-60 screen	melanoma		log TGI	> -4 log10 M

Some of these lines once more:
Structure (SMILES)	test	setting	how to read	endpoint	result
CCN(CC)c1ccc(C=NNC(=O)CSc2nc3ccccc3c(=O)n2Cc2ccc(S(N)(=O)=O)cc2)c(O)c1	NCI five-dose screen			TGI	5.44 µM
O=C1NC(c2ccccc2)(c2ccccc2)C(=O)N1Cc1cn(-c2c3ccccc3nc3ccccc23)nn1	NCI60 single-dose screen	10 µM		growth percentage	72.4%
